Results from different studies.
Protocols differ between the studies behind these lines. ± marks the error that the study gave.
GLP1R: Glucagon-like peptide 1 receptor (GLP1R, Homo sapiens, UniProt P43220)
UniProt O14980, sequence (whole entry, looked up): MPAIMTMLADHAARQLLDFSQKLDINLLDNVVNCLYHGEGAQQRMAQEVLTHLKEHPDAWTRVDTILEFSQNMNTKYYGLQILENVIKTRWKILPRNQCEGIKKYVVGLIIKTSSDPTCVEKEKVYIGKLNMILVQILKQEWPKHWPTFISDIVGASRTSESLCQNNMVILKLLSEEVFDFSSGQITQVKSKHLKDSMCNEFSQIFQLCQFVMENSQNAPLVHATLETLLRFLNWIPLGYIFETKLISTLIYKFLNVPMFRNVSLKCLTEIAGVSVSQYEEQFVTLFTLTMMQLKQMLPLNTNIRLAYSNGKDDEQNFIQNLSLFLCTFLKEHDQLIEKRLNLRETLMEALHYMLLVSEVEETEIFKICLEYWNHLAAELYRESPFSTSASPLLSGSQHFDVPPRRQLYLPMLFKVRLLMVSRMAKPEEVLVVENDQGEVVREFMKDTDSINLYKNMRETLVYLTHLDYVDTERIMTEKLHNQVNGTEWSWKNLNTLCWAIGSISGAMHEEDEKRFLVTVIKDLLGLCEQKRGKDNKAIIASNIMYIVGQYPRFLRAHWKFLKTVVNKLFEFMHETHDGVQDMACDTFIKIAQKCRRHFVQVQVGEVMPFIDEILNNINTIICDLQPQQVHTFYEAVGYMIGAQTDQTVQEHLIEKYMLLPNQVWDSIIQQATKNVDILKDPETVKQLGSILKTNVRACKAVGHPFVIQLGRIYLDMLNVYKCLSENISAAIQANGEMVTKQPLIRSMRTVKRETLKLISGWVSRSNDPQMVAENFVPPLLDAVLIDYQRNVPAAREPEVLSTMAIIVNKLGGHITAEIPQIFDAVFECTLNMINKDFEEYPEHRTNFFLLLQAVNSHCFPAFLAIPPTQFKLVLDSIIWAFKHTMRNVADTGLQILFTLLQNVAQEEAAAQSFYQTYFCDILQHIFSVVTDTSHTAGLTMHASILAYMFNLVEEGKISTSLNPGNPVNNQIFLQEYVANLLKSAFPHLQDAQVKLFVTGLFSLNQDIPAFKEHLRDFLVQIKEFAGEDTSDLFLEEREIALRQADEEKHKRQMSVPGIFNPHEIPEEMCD
UniProt O75795, sequence (whole entry, looked up): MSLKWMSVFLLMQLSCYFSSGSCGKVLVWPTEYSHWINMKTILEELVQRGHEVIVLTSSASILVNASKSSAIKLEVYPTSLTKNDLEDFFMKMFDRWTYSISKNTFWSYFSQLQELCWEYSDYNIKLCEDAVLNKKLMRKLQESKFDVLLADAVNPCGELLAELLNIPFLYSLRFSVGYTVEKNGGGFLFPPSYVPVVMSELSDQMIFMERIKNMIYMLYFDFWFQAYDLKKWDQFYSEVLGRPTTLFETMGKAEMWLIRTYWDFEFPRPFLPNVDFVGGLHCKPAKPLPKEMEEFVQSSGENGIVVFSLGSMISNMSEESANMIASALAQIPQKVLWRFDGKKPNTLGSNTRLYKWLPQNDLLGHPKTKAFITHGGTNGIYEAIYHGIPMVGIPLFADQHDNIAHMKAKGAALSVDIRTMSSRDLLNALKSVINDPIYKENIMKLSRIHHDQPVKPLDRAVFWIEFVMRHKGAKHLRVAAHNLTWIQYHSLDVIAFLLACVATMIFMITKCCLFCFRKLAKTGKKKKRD

| SMILES | tested on | assay | test system | setting | scale | measurement | result |
| --- | --- | --- | --- | --- | --- | --- | --- |
| COc1cccc(-c2n[nH]c(SCc3ccccn3)n2)c1OC | Salmonella typhimurium | Ames test, preincubation | TA1537 | 0.50 mg/plate, without S9 | – | revertant colonies per plate | 5 |
| CC[C@H](C)[C@H](NC(=O)[C@H](C)NC(=O)[C@H](CCCNC(=N)N)NC(=O)[C@H](CCCNC(=N)N)NC(=O)[C@@H](N)CCCNC(=N)N)C(=O)N[C@@H](CO)C(=O)NCC(=O)N[C@@H](CO)C(=O)N[C@@H](CCCNC(=N)N)C(=O)N[C@@H](CCCNC(=N)N)C(=O)N[C@@H](CCCNC(=N)N)C(=O)N[C@@H](CC(C)C)C(=O)N[C@@H](Cc1ccccc1)C(=O)NCC(=O)N[C@@H](Cc1ccc(O)cc1)C(N)=O | human erythrocytes | – | – | 400 µM, 1 h | relative to: Triton X-100 | hemolysis | 2% |
| O=C(O)c1cn(Cc2ccc(F)cc2)c2ccccc12 | UGT2B17 (Homo sapiens, UniProt O75795) | glucuronidation, recombinant enzyme | – | – | relative to: UGT1A10 over UGT2B17 | CLint ratio | 20 fold |
| OCc1ncc2n1-c1ccc(Cl)cc1C(c1ccccc1F)=NC2 | – | – | human, plasma | oral, 7.5 mg of midazolam, day 1, arithmetic mean, no amenamevir | – | AUC(0-inf) | 46.6 ng·h/mL |
| Cc1cc(C(C)(C)c2ccc(O)c(C)c2)ccc1O | HepG2 spheroids | flow cytometry, measured: phospho-histone H3 | – | concentration not given, 96 h | – | mitotic cells | no effect |
| CC[C@H](C)[C@H](NC(=O)[C@H](Cc1ccccc1)NC(=O)[C@H](CCC(=O)O)NC(=O)[C@H](CCCNC(=N)N)NC(=O)[C@H](C)NC(=O)[C@H](C)NC(=O)[C@H](CCC(N)=O)NC(=O)[C@H](CCC(=O)O)NC(=O)[C@H](CCC(=O)O)NC(=O)[C@H](CC(C)C)NC(=O)[C@H](Cc1ccc(O)cc1)NC(=O)[C@H](CO)NC(=O)[C@H](CO)NC(=O)[C@H](CCCCNc1c(NCCCCCN(O)C(=O)CCC(=O)NCCCCCN(O)C(=O)CCC(=O)NCCCCCN(O)C(C)=O)c(=O)c1=O)NC(=O)[C@H](CC(=O)O)NC(=O)[C@H](CO)NC(=O)[C@@H](NC(=O)[C@H](Cc1ccccc1)NC(=O)[C@@H](NC(=O)CNC(=O)[C@H](CCC(=O)O)NC(=O)[C@H](C)NC(=O)CCc1cnc[nH]1)[C@@H](C)O)[C@@H](C)O)C(=O)N[C@@H](C)C(=O)N[C@@H](Cc1c[nH]c2ccccc12)C(=O)N[C@@H](CC(C)C)C(=O)N[C@H](C(=O)N[C@@H](CCCNC(=N)N)C(=O)NCC(=O)N[C@@H](CCCNC(=N)N)C(=O)N[C@@H](CCCCNC(=O)COCCOCCNC(=O)COCCOCCNC(=O)CC[C@H](NC(=O)CCCCCCCCCCCCCCCCC(=O)O)C(=O)O)C(=O)NCC(=O)NCC(=O)N[C@@H](CO)C(=O)N[C@@H](CCCCNc1c(NCCCCCN(O)C(=O)CCC(=O)NCCCCCN(O)C(=O)CCC(=O)NCCCCCN(O)C(C)=O)c(=O)c1=O)C(=O)O)C(C)C | GLP1R | cAMP reporter gene, agonist, CRE luciferase | BHK | with Zr, 0% HSA | – | EC50 | 0.055 nM |
| C[C@H]1CN(c2n[nH]c3nc(N[C@H]4CC[C@H](NS(=O)(=O)CCC(F)(F)F)CC4)ncc23)CCO1 | Exportin-1 (XPO1, Homo sapiens, UniProt O14980) | inhibitor, Kinobeads competition profiling | – | 0.8 µM | relative to: vehicle | relative abundance | 1.1 |
| COc1cc2c(Oc3ccc4[nH]c(C)cc4c3F)ccnc2cc1OCC1(N)CC1 | – | – | paediatric recurrent refractory sarcoma | 12 mg | – | grade 1 or 2 Tinnitus | 18.2% |
| CC[C@H](C)[C@H](NC(=O)[C@H](Cc1ccccc1)NC(=O)[C@H](CCC(=O)O)NC(=O)[C@H](CCCNC(=N)N)NC(=O)[C@H](C)NC(=O)[C@H](C)NC(=O)[C@H](CCC(N)=O)NC(=O)[C@H](CCC(=O)O)NC(=O)[C@H](CCC(=O)O)NC(=O)[C@H](CC(C)C)NC(=O)[C@H](Cc1ccc(O)cc1)NC(=O)[C@H](CO)NC(=O)[C@H](CO)NC(=O)[C@@H](NC(=O)[C@H](CC(=O)O)NC(=O)[C@H](CO)NC(=O)[C@@H](NC(=O)[C@H](Cc1ccccc1)NC(=O)[C@@H](NC(=O)CNC(=O)[C@H](CCC(=O)O)NC(=O)[C@H](C)NC(=O)CCc1cnc[nH]1)[C@@H](C)O)[C@@H](C)O)C(C)C)C(=O)N[C@@H](C)C(=O)N[C@@H](Cc1c[nH]c2ccccc12)C(=O)N[C@@H](CC(C)C)C(=O)N[C@H](C(=O)N[C@@H](CCCCNc1c(NCCCCCN(O)C(=O)CCC(=O)NCCCCCN(O)C(=O)CCC(=O)NCCCCCN(O)C(C)=O)c(=O)c1=O)C(=O)NCC(=O)N[C@@H](CCCNC(=N)N)C(=O)N[C@@H](CCCCNC(=O)COCCOCCNC(=O)COCCOCCNC(=O)CC[C@H](NC(=O)CCCCCCCCCCCCCCCCC(=O)O)C(=O)O)C(=O)NCC(=O)NCC(=O)N[C@@H](CO)C(=O)N[C@@H](CCCCNc1c(NCCCCCN(O)C(=O)CCC(=O)NCCCCCN(O)C(=O)CCC(=O)NCCCCCN(O)C(C)=O)c(=O)c1=O)C(=O)O)C(C)C | GLP1R | cAMP reporter gene, agonist, CRE luciferase | BHK | without Zr, 1% HSA | – | EC50 | 0.34 nM |
| CC(C)CC(=O)OC[C@H]1O[C@@](C#N)(c2ccc3c(N)ncnn23)[C@H](O)[C@@H]1O | ABCB1 (Homo sapiens, UniProt P08183) | – | Caco-2 | 0.9 µM, 2 h, with: zosuquidar 25 µM | – | efflux ratio | > 1.23 |
| N=C(N)NCCC[C@@H]1NC(=O)[C@H](CCCCNC(=O)c2ccc(CNC34CNCCNCC(N)(CNCCNC3)CNCCNC4)cc2)NC(=O)[C@@H](Cc2ccc(O)cc2)NC(=O)[C@H](CC(=O)O)NC(=O)CNC1=O [copper-64 labelled] | – | ex vivo biodistribution | male athymic nude mouse, PC-3 tumour, lung | 7.4 MBq, 48 h | – | tissue uptake | 1.14 ± 0.14 %ID/g |
| O=c1ccc2ccccc2o1 | HepaRG 3D spheroids | oxidative stress, high-content screening | – | concentration not given, 168 h, 10% FBS medium | – | probability of response | 48.3% |
| CO[C@H]1C[C@@H]2CC[C@@H](C)[C@@](O)(O2)C(=O)C(=O)N2CCCC[C@H]2C(=O)O[C@H]([C@H](C)C[C@@H]2CC[C@@H](OC(=O)NCCOCCOCCOCCOCCOCCOCCOCCOCCC(=O)N3CCc4cc(Cn5nc(-c6ccc7oc(N)nc7c6)c6c(N)ncnc65)ccc4C3)[C@H](OC)C2)C[C@@H](O)[C@H](C)/C=C(\C)[C@@H](O)[C@@H](OC)C(=O)[C@H](C)C[C@H](C)/C=C/C=C/C=C/1C | – | – | patients with advanced solid tumours | intravenous, 6 mg weekly, any grade | – | decreased appetite incidence | 75% |
| CN1CC[C@@H](c2c(O)cc(O)c3c(=O)cc(-c4ccc(C(F)(F)F)cc4Cl)oc23)[C@@H]1CO | – | measured: Fatigue | relapsed or refractory haematological malignancies | oral, dose not given, all arms | – | patients with adverse event | 22.5% |

For quick reference, copied from above:
| SMILES | tested on | assay | test system | setting | scale | measurement | result |
| --- | --- | --- | --- | --- | --- | --- | --- |
| CC(C)CC(=O)OC[C@H]1O[C@@](C#N)(c2ccc3c(N)ncnn23)[C@H](O)[C@@H]1O | ABCB1 (Homo sapiens, UniProt P08183) | – | Caco-2 | 0.9 µM, 2 h, with: zosuquidar 25 µM | – | efflux ratio | > 1.23 |
| OCc1ncc2n1-c1ccc(Cl)cc1C(c1ccccc1F)=NC2 | – | – | human, plasma | oral, 7.5 mg of midazolam, day 1, arithmetic mean, no amenamevir | – | AUC(0-inf) | 46.6 ng·h/mL |
